Results collected from several papers.
Compare with care: the assays were run in different laboratories. “And” joins repeats or separate records; there may be more than shown.
Target: AP2-associated protein kinase 1 (AAK1, Homo sapiens, UniProt Q2M2I8)

C=CC(=O)N1CCCC(n2c(=O)c3ncccc3n(Cc3ccc(Oc4ccccc4)cc3)c2=O)C1 (centres unmarked) — remaining binding (cell-free assay, competition with immobilised ligand; 1 µM): 98%
CNC1C[S+]2CC[S+]3CC[S+](C1)[Ru-4]321([N]=C=S)[n]2c3ccc(OC)cc3c3c4c(c5cc(F)c[n+]1c5c32)C(=O)NC4=O (centres unmarked) — remaining binding (KinomeScan; 0.1 µM; relative to: untreated): 100%
C=CC(=O)N1Cc2nc(-c3cc(-c4cc(Cl)cnc4Cl)c(F)cc3F)n(-c3ccncn3)c2C1 — inhibition (cell-free assay, inhibitor; 1 µM): 0.9%
COc1cc(Nc2nc(C)cc(-c3cnn4nc(OC)ccc34)n2)cc(C(F)(F)F)c1 — remaining activity (inhibitor; 1 µM; relative to: control): 96%
CN1CCN(Cc2ccc(-c3ccc(CO[C@H]4CCC[C@@H]4NC(=O)c4cc(-c5cnn(C)c5)cnc4N)cc3)cc2)CC1 — inhibition (enzyme activity, inhibitor; 0.1 µM): 3%
C=CC(=O)N1CCc2ccc(-n3c(=O)ccc4cnc5ccc(-c6cnn(C)c6)cc5c43)cc21 — remaining binding (KINOMEscan; 1 µM; relative to: DMSO control): 63%
CCN1CCN(Cc2ccc(C(=O)Nc3ccc(C)c(NCc4cnc5[nH]ccc5c4OC)c3)cc2C(F)(F)F)CC1 — remaining binding (binding, competition with immobilised ligand; 1 µM): 100%
O=C(Cc1ccc(OCc2ccccc2)cc1)NC1(C(=O)O)CCN(C(=O)c2ccc(-c3cccc(Cl)c3)cc2)CC1 — activity vs control (enzyme activity, inhibitor; 10 µM): 109%
CCn1cc(C(=O)O)c(=O)c2c(N)c(F)c(NC3CCCCC3)cc21 — inhibition (kinase activity; 0.1 µM, added: ATP at Km): -10.2%
N[C@H]1CC[C@H](Nc2nccc(-c3cccnc3Oc3ccc(NC(=O)NC4CC4)c4ccccc34)n2)CC1 — log2 LFQ intensity (kinobead competition pulldown; HEK293/HCT116 lysate mixture; 10 µM, 1 h, 4 °C; lower = stronger competition): 28.9 and 28.7 and 28.8
Cc1cnc2nc1Nc1cccc(c1)COC/C=C/COCc1cc(ccc1OCCN1CCOCC1)N2 — remaining binding (binding; 0.1 µM): 100%
Cc1ccc(-c2c(/C=C(\C#N)C(=O)NC(C)C)n(CCCO)c3ncnc(N)c23)cc1 — remaining binding (cell-free assay, competition with immobilised ligand; 1 µM): 100%
Nc1ncc2c(n1)-c1c([nH]c3ccc(C4=CCOCC4)cc13)CCC2 — remaining binding (binding, competition with immobilised ligand; 1 µM): 100%
COc1cc(Nc2nccc(-c3cnn4nc(OC)ccc34)n2)cc(C(F)(F)F)c1 — remaining binding (binding, competition with immobilised ligand; 1 µM): 90%
COc1c(Cl)cccc1Nc1c(-c2ccncc2C#C[C@@]2(C)CCCN2C(=O)/C=C/CN(C)C)[nH]c2c1C(=O)NCC2 — remaining binding (binding, competition with immobilised ligand; 3 µM): 98%
CC(C)=CC1OC(C)(C)C2C=C3C(=O)C(Cl)=CC(O)C3C3C(O)C4OC4C(=O)C132 (centres unmarked) — remaining binding (cell-free assay, competition with immobilised ligand; 10 µM): 95%
CNC(=O)C1CCN(c2cc(C)c(F)cc2NC(=O)c2ccc(-c3cc(O)ccc3C)c(C)c2)CC1 — remaining binding (binding, competition with immobilised ligand; 1 µM): 84%

A few entries again:
CNC(=O)C1CCN(c2cc(C)c(F)cc2NC(=O)c2ccc(-c3cc(O)ccc3C)c(C)c2)CC1 — remaining binding (binding, competition with immobilised ligand; 1 µM): 84%
